Assay results of several laboratories.
Numbered parts are unrelated; each lists some results of a single study.

Sample 1
Target: Histone acetyltransferase KAT6A, winged helix 2, GST fusion (KAT6A, Homo sapiens, UniProt Q92794, residues 85-181)
Method: protein binding microarray
Molecule type: double-stranded DNA, one strand shown
Sample: in vitro
Concentration: not given
Notes: 8-mer, flanks averaged, mean of 2 arrays, mostly near background
Baseline: not given
Reading: higher = stronger binding
Endpoint: E-score
Target sequence (chain): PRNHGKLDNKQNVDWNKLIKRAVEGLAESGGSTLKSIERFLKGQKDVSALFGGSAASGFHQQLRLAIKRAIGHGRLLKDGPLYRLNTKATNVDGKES
CGGCGGCC: -0.0365
ATCAAGAA: 0.0751
AGGAAACA: 0.0388
GTGGCACA: -0.141
AGTGCTTG: -0.0216
TAGCGTAA: -0.0345
CCTCAAGA: -0.0709
GGTCGGCA: 0.239
AGGGACGG: -0.0939
AGCGCTCG: -0.0191
GTGCTTTA: 0.0501
CGCCCAGC: 0.146
ACATTTCA: -0.0866
CGGTCCAC: -0.037
GTCCCTTA: -0.142
GGGTCGCA: 0.147
CCTCCAAC: 0.0268
AACAGCAC: 0.139
GGTAATCA: -0.0954
CAGAGTCG: -0.173
ATTAGGAG: -0.0191
CTTCAGCC: 0.0112
CACATAAA: 0.0146
GCAGCGAA: 0.17
TATTGAGA: 0.0882

Sample 2
Target: Interferon regulatory factor 5, full length, phosphomimetic (IRF5, Homo sapiens, UniProt Q13568-2, residues 1-514, K96S/S451D/S453D/S456D/S462D)
Method: protein-binding microarray
Molecule type: double-stranded DNA, one strand shown
Sample: in vitro
Concentration: 250 nM
Notes: 60-bp whole probe
With: salmon DNA 0.4 mg/ml
Baseline: random background probes
Reading: higher = stronger binding
Endpoint: log fluorescence
Constant ends, left off below: GCCTAGCAC … GTCTTGATTCGCTTGACGCTGCTG
TTAGATATCAGTATGGATTAGTGCTAG: 1.33 z-score
TTAGGATTCGGTTCCGGTTAGTGCTAG: 1.95 z-score
GACGGTAACCTACTGCTGACGTGCTAG: -0.355 z-score
TTAGGTTCCCTTTTCCGTTAGTGCTAG: 0.723 z-score
GACGGACTGCTTACCCTGACGTGCTAG: -0.326 z-score
GATTTCTTCCCTGTGAAAACGTGCTAG: 0.905 z-score
GACGGTATCGGCTTTCGGGACGTGCTA: 4.61 z-score
GGCAGGCTTGCCAGTTCCCCGTGCTAG: -0.927 z-score
GCACATGAGCCAAGCCTGCCGTGCTAG: -0.695 z-score
AGGATCCAGCCTGCAACCTCGTGCTAG: -0.547 z-score
TTAGGCTTCCTTTTCCTTTAGTGCTAG: 0.349 z-score
TCATACATCTCTCTTAAACTGTGCTAG: 0.398 z-score
TCAGGAGTCATTCTCAAACTGTGCTAG: -0.254 z-score
TCAGGTATCGGTTTCGGTTAGTGCTAG: 10.9 z-score
TCAGCTATCACTATTCTACTGTGCTAG: 2.25 z-score
GACGGTTTCGGTTTCGGGACGTGCTAG: 10.3 z-score
GACGGATTCGACACTGGGGACGTGCTA: -0.377 z-score
TTAGATTTCGGACTGGGTTAGTGCTAG: 2 z-score
AAAGATTTATCAAATGTGGGAGTGCTA: 0.266 z-score

Sample 3
Target: Hepatocyte nuclear factor 3-beta, forkhead domain (FOXA2, Homo sapiens, UniProt Q9Y261, residues 142-269)
Method: protein-binding microarray
Molecule type: double-stranded DNA, one strand shown
Sample: in vitro
Concentration: not given
Notes: k-mer, scored over probes, only values ≥0.25
Reading: higher = stronger binding
Endpoint: E-score
Residues (chain): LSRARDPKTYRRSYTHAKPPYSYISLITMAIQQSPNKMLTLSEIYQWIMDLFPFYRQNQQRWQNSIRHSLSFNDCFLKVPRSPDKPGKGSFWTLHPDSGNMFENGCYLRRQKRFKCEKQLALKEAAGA
TAAACAGA: 0.284
ACAGATAT: 0.297
ATATCGGA: 0.276
AACAATTA: 0.318
ATGTAAAA: 0.273
ATAGTTAA: 0.337
GTTGATTA: 0.261
CATTCATA: 0.312
ACATTATG: 0.299
GCATAATA: 0.327
AACGTAAT: 0.297
ACAGCTAT: 0.252
AAATAACA: 0.349
ATTGACAA: 0.27
CGTGTATA: 0.262
ATACGTAT: 0.264
AATAATAA: 0.259
TATTATGA: 0.254

Sample 4
Target: Sal-like protein 4, full length isoform A (SALL4, Homo sapiens, UniProt Q9UJQ4, residues 1-1053)
UniProt Q9UJQ4, sequence (whole entry, looked up): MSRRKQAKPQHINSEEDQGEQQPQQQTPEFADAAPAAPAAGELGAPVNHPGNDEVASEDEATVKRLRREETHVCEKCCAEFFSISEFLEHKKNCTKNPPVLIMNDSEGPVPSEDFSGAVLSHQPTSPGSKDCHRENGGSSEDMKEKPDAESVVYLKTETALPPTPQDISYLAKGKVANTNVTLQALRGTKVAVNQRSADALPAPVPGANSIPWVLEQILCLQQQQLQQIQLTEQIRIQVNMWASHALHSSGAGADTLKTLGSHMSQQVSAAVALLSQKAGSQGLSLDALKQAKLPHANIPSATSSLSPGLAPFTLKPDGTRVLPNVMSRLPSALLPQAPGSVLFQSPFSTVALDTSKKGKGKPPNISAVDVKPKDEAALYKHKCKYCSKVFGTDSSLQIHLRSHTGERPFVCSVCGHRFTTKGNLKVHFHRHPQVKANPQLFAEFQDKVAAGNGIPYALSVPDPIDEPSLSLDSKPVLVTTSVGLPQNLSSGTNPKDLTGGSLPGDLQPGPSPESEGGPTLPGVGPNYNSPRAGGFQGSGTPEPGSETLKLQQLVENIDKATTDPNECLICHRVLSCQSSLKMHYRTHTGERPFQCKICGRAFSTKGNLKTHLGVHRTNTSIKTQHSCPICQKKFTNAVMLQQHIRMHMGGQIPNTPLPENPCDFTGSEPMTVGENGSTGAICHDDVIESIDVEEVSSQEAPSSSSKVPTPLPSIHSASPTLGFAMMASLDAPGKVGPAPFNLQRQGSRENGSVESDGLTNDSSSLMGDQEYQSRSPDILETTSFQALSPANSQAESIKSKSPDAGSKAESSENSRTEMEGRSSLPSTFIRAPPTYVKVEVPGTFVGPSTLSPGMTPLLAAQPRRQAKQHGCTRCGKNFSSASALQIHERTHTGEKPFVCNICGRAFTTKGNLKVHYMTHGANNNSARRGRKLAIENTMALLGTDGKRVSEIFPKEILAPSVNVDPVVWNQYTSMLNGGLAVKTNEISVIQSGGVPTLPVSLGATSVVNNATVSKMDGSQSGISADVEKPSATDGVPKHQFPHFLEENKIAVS
Method: universal PBM
Molecule type: double-stranded DNA, one strand shown
Sample: in vitro
Concentration: 600 nM
Notes: 8-mer, flanks averaged, mean of replicates
Reading: higher = stronger binding
Endpoint: E-score
AACCTTCT: -0.108
AAGTTCGG: -0.166
CTTTAACA: 0.255
AGGACTAC: -0.098
CGGACGAG: -0.23
ACCCTTAT: 0.157
CAATCGAA: 0.0907
CAACGCGA: -0.294
CCTGTTCA: -0.092
CAACTTAC: -0.00722
GATCATTA: 0.236
AGAGGTCG: -0.0802
GGAGTTAA: 0.0405
GCTTACTA: 0.124
AAAGTATG: 0.247
AGGTAACG: -0.0645

Sample 5
Target: RNA binding protein fox-1 homolog 2, RRM domain, GST-SBP tag (RBFOX2, Homo sapiens, UniProt O43251-10, residues 100-194)
Method: RNA Bind-n-Seq
Molecule type: RNA
Sample: in vitro
Concentration: 365 nM
Notes: natural RNA segment, single round, ends assumed
Baseline: no-protein control
Reading: higher = stronger binding
Endpoint: RBNS enrichment (R)
Construct (chain): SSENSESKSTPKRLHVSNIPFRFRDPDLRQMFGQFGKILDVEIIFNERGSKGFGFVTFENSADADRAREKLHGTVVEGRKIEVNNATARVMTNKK
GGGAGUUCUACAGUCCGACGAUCGACUUUGUGCCUUAAGUCUACUCAGUGCCUGGUGAAGCCACCCUCAGCCCUUCACAGGCCUGAACCAGUAGGGGCCAGUGGGCCAGGUAAGCCCUAGAGCCUUGAACCAGUGGAAUUCUCGGGUGCCAA: 0.444
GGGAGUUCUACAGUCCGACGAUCCUUCUGUGUUGUGUGCAGAGACUGCACAGUAAAACAGUCACUUUUGCCAACAAGAAUGUGUGGCGCCCCACAUCUCCCUACCUUGCACUCUAGGGCCAGACCACUCUCUGUGGAAUUCUCGGGUGCCAA: 0.623
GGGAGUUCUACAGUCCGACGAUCAGUGAGCACUAGGACAGCUGGGGGCUGCGUCAGGCUACUGGCUUCCUGUGUUCUCACCACUGUCCCUCUAGCCCUGACUGCAAGUAUGCAGUGCUGGAUGACGGGCAGUGUGGAAUUCUCGGGUGCCAA: 0.642
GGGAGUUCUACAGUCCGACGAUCGGUCUCAUGGACCAUAGAACUCACAGUACCUGGAUCUGCCCAGCAUGCCCUUUGGACCCAGUUCCCACCGAGGCCCCAGCAGAGUGGAGGGCACAACACUUUCAUUCAGCUGGAAUUCUCGGGUGCCAA: 24.4
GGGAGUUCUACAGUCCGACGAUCACAGUACUUGGUCACAAUAUCAAGUGUAUUUUUGUACAUAAUAUAUAUUGAUUAGAAAAACGUCAAUUGUCUAUUCAAAAAAUUCUAUCUCUGUGAUAGAUUAUAUUUAUUGGAAUUCUCGGGUGCCAA: 0.411
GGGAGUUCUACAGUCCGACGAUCAGUGUCUUCCUCCACGCGGAUUCCUGUACACCUUGAUCCAAAGCAGUGCUCCCAAGAGCAGCUCCUACGUGGUGCUGCCCGACACCAGCACAUGAGGGGCCGCUCUUCUGUGGAAUUCUCGGGUGCCAA: 0.354
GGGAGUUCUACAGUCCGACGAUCUUAACAUCAUAUGGUCUGAAAAUGUGGGUUUUUAUUUGGCACAUUUAAAUAAAAUGUUUCUAACUAGUUUUUGAUUUGUGUUCAAUAUUAACACUUCUUAAUUUGAUAUAUGGAAUUCUCGGGUGCCAA: 0.559
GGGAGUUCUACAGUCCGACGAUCGUUUUAAAUAAAAGGAAAGAGCAAGUUUGCUCAGUCAAGUGAUCAGAUCCCGAAUCUAGAUUCCCAGUUCUAAGGCCUUAUCACCUCCCCUGCCCAUAGGCCAACAACCAUGGAAUUCUCGGGUGCCAA: 0.334

Some of these lines once more (sample 3):
TAAACAGA: 0.284
ACAGATAT: 0.297
ATATCGGA: 0.276
AACAATTA: 0.318
ATGTAAAA: 0.273
ATAGTTAA: 0.337
GTTGATTA: 0.261
CATTCATA: 0.312
